Measured values gathered from unrelated publications.
Numbers after ± are the reported error.
Grm5: Metabotropic glutamate receptor 5 (Grm5, Rattus norvegicus, UniProt P31424)
UniProt P31424, sequence (whole entry, looked up): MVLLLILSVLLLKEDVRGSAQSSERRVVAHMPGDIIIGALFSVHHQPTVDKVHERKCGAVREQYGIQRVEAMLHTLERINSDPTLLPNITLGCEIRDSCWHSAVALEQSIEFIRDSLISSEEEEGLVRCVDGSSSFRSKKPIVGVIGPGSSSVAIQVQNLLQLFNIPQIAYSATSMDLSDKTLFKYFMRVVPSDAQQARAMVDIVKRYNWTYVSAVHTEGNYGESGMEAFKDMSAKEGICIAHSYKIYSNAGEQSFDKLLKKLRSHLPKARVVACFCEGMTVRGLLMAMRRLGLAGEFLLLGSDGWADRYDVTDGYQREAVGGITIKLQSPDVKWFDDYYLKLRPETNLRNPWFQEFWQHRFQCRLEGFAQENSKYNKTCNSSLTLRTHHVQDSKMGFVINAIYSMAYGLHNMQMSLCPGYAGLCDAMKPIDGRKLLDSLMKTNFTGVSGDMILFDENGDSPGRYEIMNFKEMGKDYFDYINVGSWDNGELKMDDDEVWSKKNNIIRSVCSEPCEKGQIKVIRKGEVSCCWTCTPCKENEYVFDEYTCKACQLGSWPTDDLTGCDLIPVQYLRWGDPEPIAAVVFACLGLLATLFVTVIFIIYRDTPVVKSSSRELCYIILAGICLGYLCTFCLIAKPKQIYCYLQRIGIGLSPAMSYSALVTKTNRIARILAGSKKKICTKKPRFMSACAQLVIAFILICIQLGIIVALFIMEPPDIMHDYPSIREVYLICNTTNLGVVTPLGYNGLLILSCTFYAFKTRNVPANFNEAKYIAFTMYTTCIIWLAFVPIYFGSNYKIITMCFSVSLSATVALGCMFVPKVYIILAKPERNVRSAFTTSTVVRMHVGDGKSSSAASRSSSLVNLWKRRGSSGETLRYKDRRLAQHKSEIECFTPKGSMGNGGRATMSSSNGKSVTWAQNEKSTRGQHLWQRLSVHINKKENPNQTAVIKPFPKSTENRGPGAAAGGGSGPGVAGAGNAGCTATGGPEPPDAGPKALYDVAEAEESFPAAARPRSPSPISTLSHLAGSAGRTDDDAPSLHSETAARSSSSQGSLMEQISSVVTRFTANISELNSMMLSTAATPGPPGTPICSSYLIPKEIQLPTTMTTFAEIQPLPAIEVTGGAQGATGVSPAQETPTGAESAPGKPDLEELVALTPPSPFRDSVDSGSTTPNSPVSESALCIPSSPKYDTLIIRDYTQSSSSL
FGFR1: Fibroblast growth factor receptor 1 (FGFR1, Homo sapiens, UniProt P11362)
UniProt P11362, sequence (whole entry, looked up): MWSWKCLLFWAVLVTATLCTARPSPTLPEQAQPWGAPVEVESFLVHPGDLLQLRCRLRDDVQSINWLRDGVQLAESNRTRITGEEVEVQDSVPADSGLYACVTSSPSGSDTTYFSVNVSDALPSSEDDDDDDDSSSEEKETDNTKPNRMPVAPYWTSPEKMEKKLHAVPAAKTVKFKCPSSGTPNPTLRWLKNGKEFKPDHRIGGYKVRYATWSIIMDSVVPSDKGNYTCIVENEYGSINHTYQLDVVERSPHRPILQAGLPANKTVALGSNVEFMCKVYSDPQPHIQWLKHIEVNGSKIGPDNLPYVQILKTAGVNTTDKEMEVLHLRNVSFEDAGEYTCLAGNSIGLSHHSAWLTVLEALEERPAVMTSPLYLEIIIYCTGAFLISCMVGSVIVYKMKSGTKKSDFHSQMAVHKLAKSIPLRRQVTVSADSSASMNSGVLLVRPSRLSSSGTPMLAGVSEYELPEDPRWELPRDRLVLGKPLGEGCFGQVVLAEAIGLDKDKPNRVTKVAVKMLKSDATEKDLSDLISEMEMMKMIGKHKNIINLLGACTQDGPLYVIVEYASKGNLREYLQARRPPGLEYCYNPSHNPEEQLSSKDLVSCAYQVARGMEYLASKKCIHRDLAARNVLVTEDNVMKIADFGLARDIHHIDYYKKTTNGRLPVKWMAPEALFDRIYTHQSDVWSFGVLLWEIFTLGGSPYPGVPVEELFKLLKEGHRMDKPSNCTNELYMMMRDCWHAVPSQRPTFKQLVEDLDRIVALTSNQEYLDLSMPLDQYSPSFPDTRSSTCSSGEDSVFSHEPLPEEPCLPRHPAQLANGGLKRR
UniProt P48775, sequence (whole entry, looked up): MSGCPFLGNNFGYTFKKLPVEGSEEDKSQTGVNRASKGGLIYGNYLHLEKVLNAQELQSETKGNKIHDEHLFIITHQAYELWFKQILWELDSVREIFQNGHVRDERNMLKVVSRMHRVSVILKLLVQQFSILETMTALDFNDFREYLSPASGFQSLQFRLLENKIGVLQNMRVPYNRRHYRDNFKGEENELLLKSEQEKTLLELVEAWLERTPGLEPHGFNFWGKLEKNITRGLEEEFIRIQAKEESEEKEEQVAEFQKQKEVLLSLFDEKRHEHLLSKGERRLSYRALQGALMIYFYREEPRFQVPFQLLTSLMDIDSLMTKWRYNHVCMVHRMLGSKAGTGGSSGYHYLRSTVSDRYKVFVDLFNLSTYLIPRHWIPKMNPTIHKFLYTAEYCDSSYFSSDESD
UniProt P48546, sequence (whole entry, looked up): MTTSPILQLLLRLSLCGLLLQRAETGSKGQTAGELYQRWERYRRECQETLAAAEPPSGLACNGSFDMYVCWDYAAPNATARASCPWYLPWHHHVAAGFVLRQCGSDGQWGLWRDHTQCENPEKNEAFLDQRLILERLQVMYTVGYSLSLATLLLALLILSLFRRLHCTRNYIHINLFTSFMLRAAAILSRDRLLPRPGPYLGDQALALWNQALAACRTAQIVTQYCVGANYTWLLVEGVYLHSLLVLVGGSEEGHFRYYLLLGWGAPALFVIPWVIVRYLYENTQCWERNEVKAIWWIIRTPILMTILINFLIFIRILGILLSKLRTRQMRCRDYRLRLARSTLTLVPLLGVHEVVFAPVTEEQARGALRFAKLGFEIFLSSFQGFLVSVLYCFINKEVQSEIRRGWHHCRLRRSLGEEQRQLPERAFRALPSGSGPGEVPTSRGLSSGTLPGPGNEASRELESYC
UniProt P35354, sequence (whole entry, looked up): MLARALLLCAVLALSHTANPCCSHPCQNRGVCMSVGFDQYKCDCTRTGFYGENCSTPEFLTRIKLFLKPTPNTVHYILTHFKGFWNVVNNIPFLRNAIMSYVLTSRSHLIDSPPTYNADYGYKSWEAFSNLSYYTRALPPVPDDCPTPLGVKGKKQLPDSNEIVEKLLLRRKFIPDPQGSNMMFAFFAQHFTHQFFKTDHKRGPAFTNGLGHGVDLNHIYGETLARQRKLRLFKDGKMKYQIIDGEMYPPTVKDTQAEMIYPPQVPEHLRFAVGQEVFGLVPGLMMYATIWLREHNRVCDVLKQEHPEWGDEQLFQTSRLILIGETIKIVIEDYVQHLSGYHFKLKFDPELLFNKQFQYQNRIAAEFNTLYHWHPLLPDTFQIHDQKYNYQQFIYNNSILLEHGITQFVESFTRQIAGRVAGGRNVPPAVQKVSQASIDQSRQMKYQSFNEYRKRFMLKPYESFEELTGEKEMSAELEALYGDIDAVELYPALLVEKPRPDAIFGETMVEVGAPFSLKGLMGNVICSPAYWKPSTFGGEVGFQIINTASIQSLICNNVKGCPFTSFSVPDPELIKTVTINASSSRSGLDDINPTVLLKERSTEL
UniProt Q8TEK3, sequence (whole entry, looked up): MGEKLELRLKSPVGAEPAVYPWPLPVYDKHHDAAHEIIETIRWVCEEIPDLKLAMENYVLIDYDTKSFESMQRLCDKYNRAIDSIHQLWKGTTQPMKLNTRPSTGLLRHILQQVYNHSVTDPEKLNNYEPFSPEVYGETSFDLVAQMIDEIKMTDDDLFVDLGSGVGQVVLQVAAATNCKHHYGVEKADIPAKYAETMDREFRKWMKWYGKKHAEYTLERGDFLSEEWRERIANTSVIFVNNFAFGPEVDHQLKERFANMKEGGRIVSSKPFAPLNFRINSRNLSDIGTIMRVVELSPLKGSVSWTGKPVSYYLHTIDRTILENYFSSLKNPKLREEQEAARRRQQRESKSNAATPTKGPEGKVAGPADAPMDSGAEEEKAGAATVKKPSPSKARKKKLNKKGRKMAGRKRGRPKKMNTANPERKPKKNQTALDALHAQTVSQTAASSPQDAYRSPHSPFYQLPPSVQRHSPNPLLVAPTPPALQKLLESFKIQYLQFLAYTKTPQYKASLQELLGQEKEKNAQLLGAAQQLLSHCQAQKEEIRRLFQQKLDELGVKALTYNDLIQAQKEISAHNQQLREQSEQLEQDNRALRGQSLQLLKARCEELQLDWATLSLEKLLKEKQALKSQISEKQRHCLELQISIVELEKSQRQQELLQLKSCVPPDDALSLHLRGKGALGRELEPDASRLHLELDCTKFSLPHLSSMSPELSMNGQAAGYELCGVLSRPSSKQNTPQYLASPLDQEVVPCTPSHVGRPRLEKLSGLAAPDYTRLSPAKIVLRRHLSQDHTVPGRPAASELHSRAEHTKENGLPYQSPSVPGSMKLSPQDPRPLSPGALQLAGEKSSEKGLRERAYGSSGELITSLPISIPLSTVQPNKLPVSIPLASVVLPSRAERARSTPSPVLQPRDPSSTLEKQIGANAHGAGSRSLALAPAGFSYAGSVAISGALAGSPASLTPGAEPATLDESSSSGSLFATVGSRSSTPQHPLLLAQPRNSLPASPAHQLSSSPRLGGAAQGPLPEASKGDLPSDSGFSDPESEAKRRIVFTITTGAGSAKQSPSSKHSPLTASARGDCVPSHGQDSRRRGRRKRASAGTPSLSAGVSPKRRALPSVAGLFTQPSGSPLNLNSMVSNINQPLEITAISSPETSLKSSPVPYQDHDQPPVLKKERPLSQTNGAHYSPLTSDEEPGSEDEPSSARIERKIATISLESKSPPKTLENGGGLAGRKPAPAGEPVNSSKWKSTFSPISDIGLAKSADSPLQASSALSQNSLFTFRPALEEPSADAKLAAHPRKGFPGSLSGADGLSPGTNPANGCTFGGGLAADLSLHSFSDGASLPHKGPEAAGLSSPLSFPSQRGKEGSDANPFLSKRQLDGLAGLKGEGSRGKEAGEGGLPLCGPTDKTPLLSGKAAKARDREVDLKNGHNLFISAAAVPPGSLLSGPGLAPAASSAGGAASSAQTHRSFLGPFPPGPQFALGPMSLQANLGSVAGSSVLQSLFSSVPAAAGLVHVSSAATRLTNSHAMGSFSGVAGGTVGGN

Cc1ccc([C@H]2N[C@H](C(=O)O)Cc3c2[nH]c2ccccc32)c(Cl)c1
IC50 (MEP cytidylyltransferase IspD (Plasmodium falciparum, UniProt Q8I273); enzyme activity, inhibitor, fluorimetric pyrophosphate; 60 nM enzyme): 82 ± 10 nM

O=C(O)CCOCCOCCOCCOCCOCc1cn([C@H]2[C@@H](O)[C@@H](CO)O[C@@H](S[C@@H]3O[C@H](CO)[C@H](O)[C@H](n4cc(-c5ccccc5)nn4)[C@H]3O)[C@@H]2O)nn1
IC50 (Galectin-3 (LGALS3, Homo sapiens, UniProt P17931); binding to asialofetuin, inhibitor, ELISA; LGALS3 5.56 µM): 9030 ± 27 nM

N#Cc1cc(F)cc(-c2ccc3cccnc3c2)c1
IC50 (Grm5; calcium signal, antagonist): 182 nM

O=C(NCCCN1CCCC1)c1cccc(Br)c1
IC50 (Lethal(3)malignant brain tumor-like protein 3 (Homo sapiens, UniProt Q96JM7); methyl-lysine reader binding, inhibitor, AlphaScreen): > 100000 nM

CCC1(CC)C[C@@H](NC(=O)Nc2cccc3c(C)nccc23)c2cc(F)ccc2O1
IC50 (Trpv1 (Rattus norvegicus, UniProt O35433); calcium signal, antagonist, fluorescence): 79.7 nM

[N-]=[N+]=N[C@H]1C[C@H](n2cnc3c(N)ncnc32)O[C@@H]1COP(=O)(O)OP(=O)(O)OP(=O)(O)O
IC50 (TERT (Homo sapiens, UniProt O14746); enzyme activity, inhibitor, stretch PCR; with: competing dNTP 10 µM): 40000 nM

CC[C@H](C)[C@H](NC(=O)[C@H](CO)NC(=O)[C@H](Cc1ccc(O)cc1)NC(=O)[C@H](CC(=O)O)NC(=O)[C@H](CO)NC(=O)[C@@H](NC(=O)[C@H](Cc1ccccc1)NC(=O)[C@@H](NC(=O)CNC(=O)[C@H](CCC(=O)O)NC(=O)[C@H](C)NC(=O)[C@@H](N)Cc1ccc(O)cc1)[C@@H](C)O)[C@@H](C)CC)C(=O)N[C@@H](C)C(=O)N[C@@H](CCSC)C(=O)N[C@@H](CC(=O)O)C(=O)N[C@@H](CCCCN)C(=O)N[C@H](C(=O)N[C@@H](CCCNC(=N)N)C(=O)N[C@@H](CCC(N)=O)C(=O)N[C@@H](CCC(N)=O)C(=O)N[C@@H](CC(=O)O)C(=O)N[C@@H](Cc1ccccc1)C(=O)N[C@H](C(=O)N[C@@H](CC(N)=O)C(=O)N[C@@H](Cc1c[nH]c2ccccc12)C(=O)N[C@@H](CC(C)C)C(=O)N[C@@H](CC(C)C)C(=O)N[C@@H](C)C(=O)N[C@@H](CCC(N)=O)C(=O)N[C@@H](CCCCN)C(=O)NCC(=O)N[C@@H](CCCCN)C(=O)N[C@@H](CCCCN)C(=O)N[C@@H](CC(N)=O)C(=O)N[C@@H](CC(=O)O)C(=O)N[C@@H](Cc1c[nH]c2ccccc12)C(=O)N[C@@H](CCCCN)C(=O)N[C@@H](Cc1c[nH]cn1)C(=O)N[C@@H](CC(N)=O)C(=O)N[C@@H](CC(C)C)C(=O)N[C@H](C(=O)N[C@@H](CCC(N)=O)C(=O)O)[C@@H](C)O)C(C)C)[C@@H](C)CC
IC50 (GIPR (Homo sapiens, UniProt P48546); ligand displacement in cells, radioligand): 1.26 nM

O=C(Nc1ccc(Cl)c(Cl)c1)Nc1ccc(Cl)c(NCc2cccnc2)c1
IC50 (DDR1 (Homo sapiens, UniProt Q08345); enzyme activity, inhibitor, mobility shift): 1110 nM

COc1cc2nccc(Oc3ccc(NC(=S)Nc4ccc(Cl)cc4F)c(Cl)c3)c2cc1C(N)=O
IC50 (FGFR1): 9150 nM

Cc1cc(=O)c(O)c(CN2CCSCC2)n1C
IC50 (TDO2 (Homo sapiens, UniProt P48775); inhibitor; with: L-tryptophan 400 µM): 7120 nM

Cc1ccc(CNC(=O)C(CCc2ccccc2)NC(=O)C(NC(=O)Cc2cccc(Oc3ccccc3)c2)C(C)O)cc1 (centres unmarked)
IC50 (Proteasome subunit beta type-10 / Proteasome subunit beta type-3 (Homo sapiens, UniProt P40306+P49720); inhibitor): > 100000 nM

COc1cc(N2CCN(C)CC2)ccc1Nc1ncc2c(n1)N(C)c1ccc(C)cc1C(=O)N2CC(F)(F)F
IC50 (DCLK2 (Homo sapiens, UniProt Q8N568); enzyme activity, inhibitor, radiometric): > 10000 nM

Cc1ccc(-c2nc(Nc3nc4ccccc4o3)ncc2C#N)cc1
IC50 (Grm5; calcium signal, antagonist): 90 nM

COc1cc2nccc(Oc3ccc(NC(=S)NC4CC4)cc3C(F)(F)F)c2cc1C(N)=O
IC50 (FGFR1): 4920 nM

c1ccc(-c2cc3ccccc3o/c2=N\c2cccc3ccccc23)cc1
IC50 (PTGS2 (Homo sapiens, UniProt P35354); enzyme activity, inhibitor): 8.3 nM

CC(C)(C)c1ccc(CC(=NO)C(=O)NCCSSc2ccccc2)cc1
IC50 (DOT1L (Homo sapiens, UniProt Q8TEK3); enzyme activity, inhibitor): 1770 nM

CCCCCCc1ccc(S(=O)(=O)N2CC2C(=O)N(C)C)cc1 (centres unmarked)
IC50 (P4HB (Homo sapiens, UniProt P07237); enzyme activity, inhibitor, absorbance; pH 7.6): 42 nM

Repeated from above:
Cc1cc(=O)c(O)c(CN2CCSCC2)n1C
IC50 (TDO2 (Homo sapiens, UniProt P48775); inhibitor; with: L-tryptophan 400 µM): 7120 nM
